Measured values from different studies.
Each line is one published result; not all experiments were run side by side. ± marks the error that the study gave.
UniProt O43490, sequence (whole entry, looked up): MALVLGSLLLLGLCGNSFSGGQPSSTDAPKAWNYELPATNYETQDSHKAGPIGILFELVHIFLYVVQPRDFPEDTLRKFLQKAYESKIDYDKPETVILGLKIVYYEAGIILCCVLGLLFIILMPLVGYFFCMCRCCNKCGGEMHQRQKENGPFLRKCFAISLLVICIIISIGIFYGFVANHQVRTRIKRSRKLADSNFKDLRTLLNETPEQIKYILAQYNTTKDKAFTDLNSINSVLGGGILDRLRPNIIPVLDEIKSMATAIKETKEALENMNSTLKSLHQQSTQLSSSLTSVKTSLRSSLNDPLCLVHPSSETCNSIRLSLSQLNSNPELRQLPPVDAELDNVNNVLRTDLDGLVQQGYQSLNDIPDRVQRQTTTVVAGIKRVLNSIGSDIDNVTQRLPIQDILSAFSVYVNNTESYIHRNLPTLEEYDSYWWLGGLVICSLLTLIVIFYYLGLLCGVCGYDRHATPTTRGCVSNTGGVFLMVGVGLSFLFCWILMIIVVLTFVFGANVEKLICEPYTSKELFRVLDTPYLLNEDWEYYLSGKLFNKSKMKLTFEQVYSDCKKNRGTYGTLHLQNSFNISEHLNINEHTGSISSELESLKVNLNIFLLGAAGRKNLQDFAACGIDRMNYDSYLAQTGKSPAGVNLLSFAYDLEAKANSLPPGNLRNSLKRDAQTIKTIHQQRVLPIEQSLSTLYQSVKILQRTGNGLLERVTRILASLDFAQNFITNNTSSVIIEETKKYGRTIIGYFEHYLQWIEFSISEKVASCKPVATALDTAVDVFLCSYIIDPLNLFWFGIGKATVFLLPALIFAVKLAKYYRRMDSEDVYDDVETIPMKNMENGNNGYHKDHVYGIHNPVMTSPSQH
UniProt P08684, sequence (whole entry, looked up): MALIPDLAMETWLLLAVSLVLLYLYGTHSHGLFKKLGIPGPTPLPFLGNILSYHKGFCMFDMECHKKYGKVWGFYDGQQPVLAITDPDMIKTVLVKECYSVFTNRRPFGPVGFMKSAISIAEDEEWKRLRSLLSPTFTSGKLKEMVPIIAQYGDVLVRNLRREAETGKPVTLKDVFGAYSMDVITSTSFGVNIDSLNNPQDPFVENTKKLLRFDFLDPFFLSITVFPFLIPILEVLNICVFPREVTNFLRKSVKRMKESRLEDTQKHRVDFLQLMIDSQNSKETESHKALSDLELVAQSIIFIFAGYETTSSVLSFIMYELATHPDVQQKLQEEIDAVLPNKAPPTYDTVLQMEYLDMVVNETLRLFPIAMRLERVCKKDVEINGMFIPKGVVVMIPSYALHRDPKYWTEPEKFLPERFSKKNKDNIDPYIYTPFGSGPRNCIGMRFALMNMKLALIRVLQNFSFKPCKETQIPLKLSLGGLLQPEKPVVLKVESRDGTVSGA
UniProt P20231, sequence (whole entry, looked up): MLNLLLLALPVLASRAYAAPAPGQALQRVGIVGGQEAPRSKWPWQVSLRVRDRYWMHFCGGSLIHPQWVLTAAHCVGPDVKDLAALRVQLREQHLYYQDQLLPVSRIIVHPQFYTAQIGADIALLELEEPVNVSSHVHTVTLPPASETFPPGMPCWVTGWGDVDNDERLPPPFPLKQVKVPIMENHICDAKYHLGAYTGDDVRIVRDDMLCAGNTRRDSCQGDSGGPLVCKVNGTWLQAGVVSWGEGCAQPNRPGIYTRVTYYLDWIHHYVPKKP
UniProt P07550, sequence (whole entry, looked up): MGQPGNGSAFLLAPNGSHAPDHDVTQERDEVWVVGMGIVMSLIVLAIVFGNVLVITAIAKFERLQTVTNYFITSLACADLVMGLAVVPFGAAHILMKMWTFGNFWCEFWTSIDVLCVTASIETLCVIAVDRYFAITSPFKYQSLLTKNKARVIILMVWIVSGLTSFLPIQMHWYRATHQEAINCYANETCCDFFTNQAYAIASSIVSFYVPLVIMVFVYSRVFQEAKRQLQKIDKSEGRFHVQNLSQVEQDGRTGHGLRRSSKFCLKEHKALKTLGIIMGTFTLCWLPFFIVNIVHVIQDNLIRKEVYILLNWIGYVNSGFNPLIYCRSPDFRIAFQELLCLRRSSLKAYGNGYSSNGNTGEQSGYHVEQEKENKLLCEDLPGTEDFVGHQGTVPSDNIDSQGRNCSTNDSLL
UniProt Q13393, sequence (whole entry, looked up): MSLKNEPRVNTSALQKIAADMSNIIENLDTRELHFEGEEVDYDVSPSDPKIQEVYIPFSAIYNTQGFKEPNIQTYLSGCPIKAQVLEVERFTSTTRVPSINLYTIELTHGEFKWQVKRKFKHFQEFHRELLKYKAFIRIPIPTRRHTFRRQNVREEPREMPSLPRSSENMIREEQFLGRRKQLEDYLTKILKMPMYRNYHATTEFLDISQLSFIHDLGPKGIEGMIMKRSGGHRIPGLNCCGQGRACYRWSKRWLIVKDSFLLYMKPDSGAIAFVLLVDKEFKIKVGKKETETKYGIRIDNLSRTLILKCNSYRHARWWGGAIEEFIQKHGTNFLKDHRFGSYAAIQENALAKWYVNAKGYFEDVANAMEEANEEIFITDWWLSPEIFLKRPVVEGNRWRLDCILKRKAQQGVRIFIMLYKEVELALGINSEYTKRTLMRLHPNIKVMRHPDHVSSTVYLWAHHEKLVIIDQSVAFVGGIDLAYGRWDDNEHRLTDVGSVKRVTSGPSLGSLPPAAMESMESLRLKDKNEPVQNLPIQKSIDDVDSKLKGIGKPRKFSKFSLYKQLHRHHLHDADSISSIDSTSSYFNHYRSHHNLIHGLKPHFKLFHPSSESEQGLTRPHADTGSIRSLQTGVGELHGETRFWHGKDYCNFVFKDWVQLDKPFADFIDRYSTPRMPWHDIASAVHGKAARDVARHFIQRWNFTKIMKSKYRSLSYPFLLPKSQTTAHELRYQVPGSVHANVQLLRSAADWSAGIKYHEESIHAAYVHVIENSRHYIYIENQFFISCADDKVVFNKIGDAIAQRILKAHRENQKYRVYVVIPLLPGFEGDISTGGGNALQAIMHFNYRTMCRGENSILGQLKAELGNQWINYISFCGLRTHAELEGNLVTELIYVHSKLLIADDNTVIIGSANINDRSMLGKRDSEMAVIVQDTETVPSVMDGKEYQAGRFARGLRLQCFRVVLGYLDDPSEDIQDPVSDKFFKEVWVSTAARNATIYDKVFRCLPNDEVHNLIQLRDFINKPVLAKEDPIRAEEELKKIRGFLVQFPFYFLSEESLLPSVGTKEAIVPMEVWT
UniProt Q92769, sequence (whole entry, looked up): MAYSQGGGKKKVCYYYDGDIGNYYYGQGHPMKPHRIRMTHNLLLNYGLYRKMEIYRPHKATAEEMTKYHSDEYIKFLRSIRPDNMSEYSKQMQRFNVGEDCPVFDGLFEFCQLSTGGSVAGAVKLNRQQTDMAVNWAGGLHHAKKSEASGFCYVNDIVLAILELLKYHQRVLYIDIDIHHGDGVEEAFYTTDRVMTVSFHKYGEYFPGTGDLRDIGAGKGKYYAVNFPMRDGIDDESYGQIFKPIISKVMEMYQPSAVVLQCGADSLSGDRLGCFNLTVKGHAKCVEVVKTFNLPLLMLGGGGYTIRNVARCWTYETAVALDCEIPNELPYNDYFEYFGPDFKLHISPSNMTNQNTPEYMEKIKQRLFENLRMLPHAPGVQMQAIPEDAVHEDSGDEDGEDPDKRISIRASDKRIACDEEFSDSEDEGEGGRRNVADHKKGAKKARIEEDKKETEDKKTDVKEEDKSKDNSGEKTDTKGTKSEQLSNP
UniProt P52895, sequence (whole entry, looked up): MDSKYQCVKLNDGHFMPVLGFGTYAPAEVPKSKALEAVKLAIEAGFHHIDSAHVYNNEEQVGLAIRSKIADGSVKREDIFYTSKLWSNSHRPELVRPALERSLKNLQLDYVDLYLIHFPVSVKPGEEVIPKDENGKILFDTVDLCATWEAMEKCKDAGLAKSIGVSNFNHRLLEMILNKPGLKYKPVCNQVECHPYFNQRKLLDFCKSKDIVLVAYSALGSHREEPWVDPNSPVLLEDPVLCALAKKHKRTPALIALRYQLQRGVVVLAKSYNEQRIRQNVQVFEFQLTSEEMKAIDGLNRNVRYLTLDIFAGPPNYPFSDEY
UniProt O08619, sequence (whole entry, looked up): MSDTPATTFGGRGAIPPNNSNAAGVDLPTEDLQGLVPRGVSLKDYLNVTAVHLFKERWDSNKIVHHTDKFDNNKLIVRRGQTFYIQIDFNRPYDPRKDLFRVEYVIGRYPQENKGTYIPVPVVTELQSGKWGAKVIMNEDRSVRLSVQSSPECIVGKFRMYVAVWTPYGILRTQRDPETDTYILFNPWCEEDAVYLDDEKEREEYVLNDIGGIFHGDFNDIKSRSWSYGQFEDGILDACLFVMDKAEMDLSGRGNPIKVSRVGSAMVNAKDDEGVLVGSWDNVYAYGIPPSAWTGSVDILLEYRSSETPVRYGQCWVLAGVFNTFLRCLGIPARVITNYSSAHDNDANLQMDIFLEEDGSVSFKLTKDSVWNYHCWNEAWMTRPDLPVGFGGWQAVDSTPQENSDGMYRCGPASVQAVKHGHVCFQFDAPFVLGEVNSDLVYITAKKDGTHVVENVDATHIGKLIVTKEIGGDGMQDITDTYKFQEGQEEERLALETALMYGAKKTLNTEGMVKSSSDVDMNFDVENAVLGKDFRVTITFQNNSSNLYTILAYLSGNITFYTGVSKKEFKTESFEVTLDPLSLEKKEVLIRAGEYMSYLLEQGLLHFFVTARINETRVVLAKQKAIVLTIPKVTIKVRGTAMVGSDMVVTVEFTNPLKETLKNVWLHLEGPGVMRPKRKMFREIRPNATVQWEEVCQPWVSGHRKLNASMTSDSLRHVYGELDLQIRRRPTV

| SMILES | target | test | test system | conditions | IC50 |
| --- | --- | --- | --- | --- | --- |
| CC(C)C[C@@H](/C=C/S(C)(=O)=O)NC(=O)[C@H](CC(C)C)NC(=O)[C@@H](NC(=O)N[C@H](C(=O)NCc1ccccc1)C(C)C)C(C)C | rabbit 26S proteasome β1 | caspase-like activity, inhibitor, fluorogenic substrate | purified proteasome | 30 min, 37 °C, added: fluorogenic caspase-like substrate | 18 µM |
| CC[C@H](C)[C@H](NC(=O)[C@@H]1CSSC[C@H](NC(=O)[C@H](Cc2ccc(O)cc2)NC(=O)CNC(C)=O)C(=O)N[C@@H](CO)C(=O)N[C@@H](CCCNC(=N)N)C(=O)N[C@@H](CO)C(=O)N[C@@H](Cc2ccc(O)cc2)C(=O)N2CCC[C@H]2C(=O)N2CCC[C@H]2C(=O)N[C@@H](C(C)C)C(=O)N1)C(=O)N1CCC[C@H]1C(=O)N[C@@H](CC(=O)O)C(N)=O | Mannan-binding lectin serine protease 2 (Homo sapiens, UniProt O00187) | C3 deposition, inhibitor, ELISA | 100-fold diluted human serum | 30 min preincubation | 0.303 µM |
| NC(=O)CN(CC(=O)O)CC(=O)O | IMP-28 metallo-beta-lactamase | enzyme activity, inhibitor, FC5 fluorescent substrate |  | 60 pM enzyme, 1 µM ZnSO4 | > 200 µM |
| CC1C(=NOCc2cc(-c3ccc(Cl)cc3)no2)C(C)C(c2ccc(Cl)cc2)OC1c1ccc(Cl)cc1 (stereo not drawn) | DNA gyrase subunit B (gyrB, Escherichia coli, UniProt P0AES6) | ATPase activity, inhibitor |  |  | 4.12 µM |
| C[C@@]12CC[C@@H]3c4ccc(O)c(Cl)c4CC[C@H]3[C@@H]1CCC2=O | Aldo-keto reductase family 1 member C2 (AKR1C2, Homo sapiens, UniProt P52895) | enzyme activity, inhibitor, absorbance |  | pH 9 | 1.8 µM |
| CC(N)CCc1ccccc1Cl (racemic) | Beta-2 adrenergic receptor (ADRB2, Homo sapiens, UniProt P07550) | β-arrestin recruitment, antagonist |  |  | > 10 µM |
| O=C(NCCN1CCC2(CC1)C(=O)NCN2Cc1cccnc1)c1cc2cc(F)ccc2[nH]1 | Phospholipase D1 (Homo sapiens, UniProt Q13393) | enzyme activity, inhibitor |  |  | 3.1 µM |
| O=C1c2ccccc2[Se](=O)N1c1ccccc1 (stereo not drawn) | Histone deacetylase 2 (HDAC2, Homo sapiens, UniProt Q92769) | enzyme activity, inhibitor, fluorescence |  |  | > 10 µM |
| CSCC[C@H](NC(=O)CNC(=O)[C@H](CCCCN)NC(=O)[C@H](CC(C)C)NC(=O)[C@@H]1CCCN1C(=O)[C@H](CO)NC(=O)[C@H](Cc1c[nH]cn1)NC(=O)[C@H](Cc1c[nH]c2ccccc12)NC(=O)[C@H](CCCNC(=N)N)NC(=O)[C@H](CC(C)C)NC(=O)[C@H](CCCNC(=N)N)NC(=O)[C@H](Cc1c[nH]c2ccccc12)NC(=O)[C@H](CS)NC(=O)CCCCCNC(=O)CN1CCN(CC(=O)O)CCN(CC(=O)O)CCN(CC(=O)O)CC1)C(=O)O [copper-64 labelled] | PROM1 (Homo sapiens, UniProt O43490) | binding, saturation binding | Huh-7 |  | 0.045 µM |
| CC[C@H](C)[C@H](NC(=O)[C@@H](N)CC(=O)O)C(=O)N[C@H]1CSC(=O)[C@H](Cc2ccccc2)NC(=O)[C@H](Cc2ccc(O)cc2)NC(=O)[C@H](C)NC(=O)[C@H](CC(N)=O)NC1=O | accessory gene regulator protein C (Staphylococcus aureus, UniProt O33587) |  |  |  | 0.419 µM |
| CC(C)[C@H](NC(=O)c1ccc(CNc2nc3c(c(=O)[nH]2)CCC3)cc1)C(=O)NC1CNC1 | Matrix metalloproteinase-14 (MMP14, Homo sapiens, UniProt P50281) | enzyme activity, inhibitor |  |  | > 5 µM |
| COC(=O)C=CCCC(NC(=O)c1ccncc1C(=O)O)C(=O)NC(C(=O)N1CC(=O)CC1C(=O)NC(C(=O)NC(C(N)=O)C1CCCCC1)C1CCCCC1)C(C)(C)C (stereo not drawn) | Coagulation factor XIII A chain (Rat, UniProt O08619) | isopeptidase activity, inhibitor |  | rat enzyme, added: substrate A101 | 0.008 ± 0.0001 µM |
| C[C@H]1CN(c2nnnc3c2sc2nc(N4CCOCC4)c4c(c23)CCCC4)CCN1 | Beta-glucuronidase (Streptococcus agalactiae serotype V, UniProt Q8E0N2) |  | Streptococcus agalactiae |  | 1.9 ± 0.4 µM |
| COc1ccc2nc(C)cc(OCC(=O)Nc3cc(C)cc(C)c3)c2c1 | Cytochrome P450 3A4 (CYP3A4, Homo sapiens, UniProt P08684) | enzyme activity, inhibitor |  | added: VG substrate | 1.9 µM |
| N=C(N)NCCC[C@H](NC(=O)[C@H](Cc1c[nH]c2ccccc12)NC(=O)[C@H](CCCCN)NC(=O)CNC(=O)CCC(=O)NN)C(N)=O | Tryptase beta-2 (TPSB2, Homo sapiens, UniProt P20231) |  |  | pH 7.4 | 12.7 ± 0.61 µM |
